# Published values pooled from the literature.
# Parts stem from different laboratories: compare values within a part only.
# Chain of UniProt P42336 (whole entry, unmodified, looked up): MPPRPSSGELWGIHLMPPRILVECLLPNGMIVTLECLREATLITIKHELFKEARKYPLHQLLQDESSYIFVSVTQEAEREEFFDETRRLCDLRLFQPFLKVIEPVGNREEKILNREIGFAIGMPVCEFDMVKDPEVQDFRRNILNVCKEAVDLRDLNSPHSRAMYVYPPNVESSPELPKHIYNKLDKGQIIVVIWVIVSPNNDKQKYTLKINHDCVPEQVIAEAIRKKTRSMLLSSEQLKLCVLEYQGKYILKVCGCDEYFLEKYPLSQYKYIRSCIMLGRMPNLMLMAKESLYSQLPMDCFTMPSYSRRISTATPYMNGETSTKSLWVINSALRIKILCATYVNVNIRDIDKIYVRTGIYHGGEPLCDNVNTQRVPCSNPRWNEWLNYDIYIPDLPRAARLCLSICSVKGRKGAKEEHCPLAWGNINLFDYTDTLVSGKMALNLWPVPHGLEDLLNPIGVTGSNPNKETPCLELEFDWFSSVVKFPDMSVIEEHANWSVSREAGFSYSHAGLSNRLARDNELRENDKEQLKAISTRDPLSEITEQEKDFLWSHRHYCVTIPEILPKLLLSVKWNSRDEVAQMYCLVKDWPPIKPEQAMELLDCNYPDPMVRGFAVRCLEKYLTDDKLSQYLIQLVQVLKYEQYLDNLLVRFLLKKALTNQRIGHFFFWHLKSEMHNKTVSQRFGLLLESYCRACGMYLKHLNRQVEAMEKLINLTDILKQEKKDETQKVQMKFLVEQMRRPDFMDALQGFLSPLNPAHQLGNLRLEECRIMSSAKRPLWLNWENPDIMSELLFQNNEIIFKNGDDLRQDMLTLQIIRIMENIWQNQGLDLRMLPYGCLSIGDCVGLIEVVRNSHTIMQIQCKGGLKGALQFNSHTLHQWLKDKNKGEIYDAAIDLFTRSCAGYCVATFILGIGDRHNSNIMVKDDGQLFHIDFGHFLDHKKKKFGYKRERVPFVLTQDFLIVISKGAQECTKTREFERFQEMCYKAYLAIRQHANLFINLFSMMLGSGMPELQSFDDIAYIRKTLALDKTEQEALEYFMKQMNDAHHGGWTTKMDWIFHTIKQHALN
# Chain of UniProt O94806 (whole entry, looked up): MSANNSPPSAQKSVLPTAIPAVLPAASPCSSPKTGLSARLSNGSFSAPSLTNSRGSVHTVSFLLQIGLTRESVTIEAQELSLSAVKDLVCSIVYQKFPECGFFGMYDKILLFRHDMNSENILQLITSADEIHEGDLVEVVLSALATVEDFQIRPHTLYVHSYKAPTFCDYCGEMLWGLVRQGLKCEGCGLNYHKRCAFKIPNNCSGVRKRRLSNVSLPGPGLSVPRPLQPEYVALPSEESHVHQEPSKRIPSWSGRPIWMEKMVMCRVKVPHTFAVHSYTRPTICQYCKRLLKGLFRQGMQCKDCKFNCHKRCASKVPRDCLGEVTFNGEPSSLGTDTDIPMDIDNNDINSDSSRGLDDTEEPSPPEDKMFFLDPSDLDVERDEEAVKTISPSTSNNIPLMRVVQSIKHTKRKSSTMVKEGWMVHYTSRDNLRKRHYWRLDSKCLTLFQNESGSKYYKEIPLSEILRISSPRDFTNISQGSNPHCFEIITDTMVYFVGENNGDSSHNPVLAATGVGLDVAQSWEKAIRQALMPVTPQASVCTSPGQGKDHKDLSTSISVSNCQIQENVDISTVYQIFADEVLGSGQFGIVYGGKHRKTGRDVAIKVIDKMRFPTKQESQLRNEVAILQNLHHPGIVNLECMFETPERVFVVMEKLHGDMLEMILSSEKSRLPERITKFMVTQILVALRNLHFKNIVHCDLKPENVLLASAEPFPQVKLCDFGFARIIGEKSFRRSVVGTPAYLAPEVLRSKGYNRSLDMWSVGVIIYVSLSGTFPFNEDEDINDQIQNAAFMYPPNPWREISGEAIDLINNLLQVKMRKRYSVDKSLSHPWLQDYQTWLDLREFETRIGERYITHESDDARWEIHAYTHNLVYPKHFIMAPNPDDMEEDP
# Chain of UniProt Q07912 (whole entry, looked up): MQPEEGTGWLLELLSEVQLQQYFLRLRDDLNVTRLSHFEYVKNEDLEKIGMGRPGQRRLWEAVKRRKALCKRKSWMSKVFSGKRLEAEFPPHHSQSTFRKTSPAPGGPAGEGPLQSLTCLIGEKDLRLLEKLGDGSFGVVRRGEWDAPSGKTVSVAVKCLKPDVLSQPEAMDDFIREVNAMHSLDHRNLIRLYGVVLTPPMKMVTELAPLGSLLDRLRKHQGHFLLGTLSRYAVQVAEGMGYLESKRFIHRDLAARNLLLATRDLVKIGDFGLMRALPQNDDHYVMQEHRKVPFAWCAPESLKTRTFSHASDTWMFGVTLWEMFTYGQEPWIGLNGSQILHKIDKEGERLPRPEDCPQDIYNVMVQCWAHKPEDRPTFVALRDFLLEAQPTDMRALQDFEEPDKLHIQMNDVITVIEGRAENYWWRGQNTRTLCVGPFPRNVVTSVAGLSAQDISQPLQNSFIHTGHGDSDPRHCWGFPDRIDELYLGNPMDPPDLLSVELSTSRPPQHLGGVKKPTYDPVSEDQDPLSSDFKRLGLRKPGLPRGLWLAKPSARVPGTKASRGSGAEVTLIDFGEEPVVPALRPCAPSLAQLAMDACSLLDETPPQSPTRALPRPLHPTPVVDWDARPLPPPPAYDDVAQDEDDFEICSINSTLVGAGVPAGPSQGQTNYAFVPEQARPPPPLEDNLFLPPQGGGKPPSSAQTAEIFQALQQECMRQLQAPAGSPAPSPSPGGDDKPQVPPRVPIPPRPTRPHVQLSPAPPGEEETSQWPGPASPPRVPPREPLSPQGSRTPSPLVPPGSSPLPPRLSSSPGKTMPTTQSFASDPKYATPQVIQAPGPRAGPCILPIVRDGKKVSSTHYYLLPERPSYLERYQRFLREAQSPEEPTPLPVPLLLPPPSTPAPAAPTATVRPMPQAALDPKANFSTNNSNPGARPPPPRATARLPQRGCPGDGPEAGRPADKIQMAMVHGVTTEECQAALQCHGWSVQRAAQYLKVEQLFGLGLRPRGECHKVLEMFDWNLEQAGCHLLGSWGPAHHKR
# Chain of UniProt P0C264 (whole entry, looked up): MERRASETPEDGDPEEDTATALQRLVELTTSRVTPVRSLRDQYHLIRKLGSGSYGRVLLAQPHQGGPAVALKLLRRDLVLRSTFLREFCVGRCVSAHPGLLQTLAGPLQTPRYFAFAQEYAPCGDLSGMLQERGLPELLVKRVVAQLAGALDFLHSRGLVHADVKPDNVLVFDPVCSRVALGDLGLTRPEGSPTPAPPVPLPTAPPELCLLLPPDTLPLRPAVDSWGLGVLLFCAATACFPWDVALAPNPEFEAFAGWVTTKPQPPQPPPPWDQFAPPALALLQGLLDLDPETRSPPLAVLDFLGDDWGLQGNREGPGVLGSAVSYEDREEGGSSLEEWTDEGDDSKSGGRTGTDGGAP
# Chain of UniProt Q6ZN16 (whole entry, looked up): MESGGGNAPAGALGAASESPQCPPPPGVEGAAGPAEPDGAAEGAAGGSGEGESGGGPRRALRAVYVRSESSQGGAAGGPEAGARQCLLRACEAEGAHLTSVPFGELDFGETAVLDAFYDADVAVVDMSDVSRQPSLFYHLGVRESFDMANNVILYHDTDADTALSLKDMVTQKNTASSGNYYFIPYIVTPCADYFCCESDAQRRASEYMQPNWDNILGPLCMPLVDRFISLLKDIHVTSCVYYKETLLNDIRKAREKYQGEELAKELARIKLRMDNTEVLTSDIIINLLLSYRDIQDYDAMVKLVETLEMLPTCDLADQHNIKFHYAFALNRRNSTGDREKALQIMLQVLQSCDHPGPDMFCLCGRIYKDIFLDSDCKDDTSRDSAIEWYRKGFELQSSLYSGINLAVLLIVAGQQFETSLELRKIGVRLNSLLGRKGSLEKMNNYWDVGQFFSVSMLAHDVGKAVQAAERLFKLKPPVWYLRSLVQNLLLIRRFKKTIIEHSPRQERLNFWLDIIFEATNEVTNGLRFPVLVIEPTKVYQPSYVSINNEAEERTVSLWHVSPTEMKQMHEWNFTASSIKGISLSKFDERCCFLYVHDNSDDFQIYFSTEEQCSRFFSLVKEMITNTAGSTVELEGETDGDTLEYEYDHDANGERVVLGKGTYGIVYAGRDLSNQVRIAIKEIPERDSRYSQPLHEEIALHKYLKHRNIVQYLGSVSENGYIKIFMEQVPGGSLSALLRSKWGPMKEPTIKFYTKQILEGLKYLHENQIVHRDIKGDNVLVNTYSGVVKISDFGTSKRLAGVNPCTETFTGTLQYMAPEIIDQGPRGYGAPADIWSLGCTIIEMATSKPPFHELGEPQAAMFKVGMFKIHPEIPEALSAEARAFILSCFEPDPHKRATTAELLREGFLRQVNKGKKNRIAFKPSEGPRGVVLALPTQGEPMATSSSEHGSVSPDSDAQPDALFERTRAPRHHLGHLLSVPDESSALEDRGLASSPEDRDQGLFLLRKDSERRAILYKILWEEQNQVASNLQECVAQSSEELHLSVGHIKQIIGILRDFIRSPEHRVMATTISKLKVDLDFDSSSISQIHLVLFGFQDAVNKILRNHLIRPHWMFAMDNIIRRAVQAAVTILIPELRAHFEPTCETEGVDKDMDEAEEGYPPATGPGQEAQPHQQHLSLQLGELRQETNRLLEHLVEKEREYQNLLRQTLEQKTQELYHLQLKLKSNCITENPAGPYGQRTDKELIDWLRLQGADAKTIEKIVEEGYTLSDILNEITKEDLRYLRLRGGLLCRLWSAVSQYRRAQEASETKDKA

# Block 1
# Target: RNA binding protein fox-1 homolog 2, RRM domain, GST-SBP tag (RBFOX2, Homo sapiens, UniProt O43251-10, residues 100-194)
# Method: RNA Bind-n-Seq
# Form: RNA
# Medium: in vitro
# Tested at: 365 nM
# Notes: natural RNA segment, single round, ends assumed
# Reference: no-protein control
# Direction: higher = stronger binding
# Constant ends, left off below: GGGAGUUCUACAGUCCGACGAUC … UGGAAUUCUCGGGUGCCAA
# Residues (chain): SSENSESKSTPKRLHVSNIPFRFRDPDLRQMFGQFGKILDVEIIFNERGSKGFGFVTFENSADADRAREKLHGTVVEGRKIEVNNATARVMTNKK
Oligonucleotide,RBNS enrichment (R)
UACUUAUAUAUGAUGUUUCCAUAUAUGUGCUGUGUGUUUAAGUUUUGUAUCAUCCAGACUGAUACCAAAUUUUAAGGUUUUUUUUUUUUUAACAAAGACAAUACACACAU,0.568
AGUUUAUUUGCUUUUUUUAAAAAGGAGAUUAUUCUAAAAUAUAAACUUAUUUGCAUAUAUUGGAGGAGCAUCCACUAUCAGUAUUUCUGUGCUUUAUAAACUAUAUUAGA,0.846
ACGGGUUACUAAGAUGAAAUUGCCAAAAAAAUUUAUAAACUAAUUUUGUACGUAUGAAUGAUAUCUUUGACCUCAAUGGAGGUUUGCAAAGACUGAGUGUUCAAACUACU,0.466
CACAGGUGCCACCUGUCCCAGAUUGUGGCUUGGCAUGGAGCUGCCCACGUCUGGCUGCUGAUGAACGGUUUAGCCCAGUGACUUCCCUCUGUGUAGCUGAGCAAGGUCUG,0.583
AGUGUCAAGCAUGGGAGCUAAAAUGAGUAAUCUGUGUUACCACACUCUUAGUACUAUCAUUUUUUUUUUUGAGACAGGGUUUCUCUGUAUAGCCCUGGCUGUCCUGGAAC,3.84
UAUUACAGAUUAUACGAGUGUACUGCUUUAAAGAUAUUCCAUCAUUUUGCUGGUAAUUUCAGUAACUGUUUUCAGCAAGAAUAUUACAUGAGCUCUAAAGUUAUUAAGCA,0.56
UUGUGUUGUUCCAGGGCCUGUGCUAAGCACAGGCACCAAACAUAAAAAGAGAGAAAGUCCUUGCUCCCGGGAACUCCCACUCUCUCAGGAACCACAGACCACCAAUGUUG,0.341
CUAACCCUGUGGAAGCAUGGCUGUCUGCACAGAGGGUCCCAUUGUGCAGAAAAGCUCAGAGUAGGUGGGUAGGAGCCCUUCUCUUUGACUUAGGUUUUUAGGAGUCUGAG,1.12

# Block 2
# Target: Serine/threonine-protein kinase 17A (STK17A, Homo sapiens, UniProt Q9UEE5)
# Chain of UniProt Q9UEE5 (whole entry, looked up): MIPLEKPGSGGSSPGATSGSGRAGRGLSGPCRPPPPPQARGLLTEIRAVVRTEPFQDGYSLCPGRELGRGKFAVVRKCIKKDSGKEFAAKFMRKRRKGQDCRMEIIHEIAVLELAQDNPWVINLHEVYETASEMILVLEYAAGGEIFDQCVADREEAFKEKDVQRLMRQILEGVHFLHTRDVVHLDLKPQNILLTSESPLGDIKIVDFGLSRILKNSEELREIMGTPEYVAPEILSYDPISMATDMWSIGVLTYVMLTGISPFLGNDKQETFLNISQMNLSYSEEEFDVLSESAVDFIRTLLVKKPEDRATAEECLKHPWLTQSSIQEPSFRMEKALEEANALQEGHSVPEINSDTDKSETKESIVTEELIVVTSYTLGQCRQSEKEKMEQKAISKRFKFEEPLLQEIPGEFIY
# Read-out: enzyme activity
# Action: inhibitor
# Tested at: 0.5 µM
# Reference: control
SMILES,remaining activity
COc1ccc(CNC(=O)Nc2ncc([N+](=O)[O-])s2)cc1,91.6%
Oc1ccc(-c2nc(-c3ccncc3)c(-c3ccc(F)cc3)[nH]2)cc1,101%
Nc1ccc2ncnc(NCCc3ccc(Oc4ccccc4)cc3)c2c1,96.9%
COc1ccc(OC)c2c(=S)c3ccccc3[nH]c12,90.3%
Cc1cccc(-c2[nH]c(C(C)(C)C)nc2-c2ccc3c(c2)OCO3)n1,84.1%
OCC(O)CCON=C1C(c2c(O)[nH]c3ccccc23)=Nc2ccccc21 (centres unmarked),22.5%
CCOC(=O)c1c(C)[nH]c(/C=C2\C(=O)Nc3ccccc32)c1C,81.4%
CC(C)[C@H](CO)Nc1nc(Nc2cc(N)cc(Cl)c2)c2ncn(C(C)C)c2n1,96.3%
Nc1[nH]nc2nc3ccccc3nc12,95.2%
COc1cc2nccc(Oc3ccc(NC(=S)NC(=O)c4ccccc4C)cc3)c2cc1OC,82.3%
O=S(=O)(c1cccc2cnccc12)N1CCCNCC1,98.2%
O=c1c2ccccc2[nH]c(=S)n1CCN1CCC(=C(c2ccc(F)cc2)c2ccc(F)cc2)CC1,103%
O=C(CCCc1ccc(-c2ccccc2F)cc1)Nc1ccc(O)cc1,101%
Cc1ccc(Nc2nccc(N(C)c3ccc4c(C)n(C)nc4c3)n2)cc1S(N)(=O)=O,95.9%

# Block 3
# Target: Probable WRKY transcription factor 33, N-terminal DNA-binding domain (WRKY33, Arabidopsis thaliana, UniProt Q8S8P5, residues 169-264)
# Method: DNA-protein interaction ELISA
# Form: double-stranded DNA, one strand shown
# Medium: in vitro, bacterial lysate
# Tested at: not given
# Notes: whole dsDNA probe, crude lysate protein
# Reference: highest signal in screen
# Direction: higher = stronger binding
# Residues (chain): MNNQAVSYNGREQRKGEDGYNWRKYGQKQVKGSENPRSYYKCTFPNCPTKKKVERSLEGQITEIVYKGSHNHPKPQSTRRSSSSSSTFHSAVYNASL
Oligonucleotide,relative absorbance
AAAAAATGTCTTCTTACACCCTCTAGAAAA,23.5 % of maximum
AAAAAAACCCGGCCGCCATGGTAGTAAAAA,22.1 % of maximum
AAAAAATCAAAACAACGATGCCGTTAAAAA,22.4 % of maximum
AAAAAATTCTAACTTAGCCTATGTCCAAAA,26.6 % of maximum
AAAAAACCTACGATGGTTCTGATCTTAAAA,18.8 % of maximum
AAAAAAGTTTCCTACTTGTGTCTGTGAAAA,21.8 % of maximum
AAAAAATGACCAGGCCTCGAGCAAAAA,19.8 % of maximum
AAAAAACATCGCTGTCGTTGACGTTGAAAA,66.4 % of maximum

# Block 4
# Compound: O=C(NCCCC1CCCCC1)c1ccc(CNC(=O)c2cnn(-c3ccccc3)c2C(F)(F)F)cc1
# Read-out: cell-free assay
# Method: competition with immobilised ligand
# Tested at: 0.1 µM
target,remaining binding
"RET (Homo sapiens, UniProt P07949, V804M)",100%
"PRKD3 (Homo sapiens, UniProt O94806)",99%
"MAP3K15 (Homo sapiens, UniProt Q6ZN16)",84%
"PIK3CA (Homo sapiens, UniProt P42336, E545K)",68%
"CDKL5 (Homo sapiens, UniProt O76039)",100%
"SBK3 (Homo sapiens, UniProt P0C264)",100%
"FLT3 (Homo sapiens, UniProt P36888, K663Q)",100%
"TNK2 (Homo sapiens, UniProt Q07912)",100%

# Excerpt of the above (block 4):
target,remaining binding
"MAP3K15 (Homo sapiens, UniProt Q6ZN16)",84%
"PIK3CA (Homo sapiens, UniProt P42336, E545K)",68%
"CDKL5 (Homo sapiens, UniProt O76039)",100%
"SBK3 (Homo sapiens, UniProt P0C264)",100%
"FLT3 (Homo sapiens, UniProt P36888, K663Q)",100%
"TNK2 (Homo sapiens, UniProt Q07912)",100%
